Results pooled from the literature.
Each line is one published result; not all experiments were run side by side. Numbers after ± are the reported error.
4'-phosphopantetheinyl transferase PptT: 4'-phosphopantetheinyl transferase PptT (Mycobacterium tuberculosis, UniProt O33336)
Matrix protein 2: Matrix protein 2 (Influenza A virus, UniProt P0DOF5)

`Cc1nc(=O)c2cc(CN(C)c3cccc(C(=O)N[C@@]4(C(=O)O)CCC[C@H](C(=O)O)C4)c3)ccc2[nH]1` has a Hill slope of 0.9 (4'-phosphopantetheinyl transferase PptT; enzyme activity, inhibitor, fluorescence polarization).
`CN[C@](C)(C[18F])C(=O)O` gave a tracer uptake of 3.1 %ID/g (DU-145 tumour model; host not given, blood; 15 min, tumour-bearing).
`O=C(O)c1cnn(-c2ccccc2)c1OCCCCc1c[nH]c2ccccc12` gave a ligand efficiency of 0.22 (Phosphopantetheine adenylyltransferase (coaD, Mycobacterium tuberculosis, UniProt P9WPA5); isothermal titration calorimetry).
For `CCCC/C=C/C(=O)N[C@@H](Cc1cc(F)cc(F)c1)C(=O)N[C@@H](COC(=O)[C@@H]1CCCN1C(C)=O)C(=O)OC`, the ATPase activity was ~45% (ClpX Mycobacterium tuberculosis; 200 µM, DMSO 20%, with: 2 µM ClpP1P2).
Under “V1/2 of activation”, `CCN(Cc1ccccc1)C(=O)CCc1nc(CN2CCN(C(=O)Cc3ccc(OC)c(OC)c3)CC2)no1` is recorded as -30.3 ± 2.81 mV (Voltage-gated potassium channel, KQT; KCNQ2(Kv7.2)/KCNQ3(Kv7.3) (KCNQ3/KCNQ2, Homo sapiens, UniProt O43525+O43526); whole-cell patch clamp; CHO stable; 300 nM).
For `CCCCCn1cc(C(=O)c2cccc3ccccc23)c2ccccc21`, the Emax was 140 ± 5.6% (CNR1 (Homo sapiens, UniProt P21554); Gαi1 engagement, agonist, BRET; HEK293T; reference: reference agonist).
The Hill slope of `Cc1nc(=O)c2cc(CN(C)c3ccc(C(=O)NCCCC(=O)O)s3)ccc2[nH]1` is reported as 1.5 (4'-phosphopantetheinyl transferase PptT; enzyme activity, inhibitor, fluorescence polarization).
`CCCCCn1cc(C(=O)c2ccc3c(c2)CC(C)(C)C3)c2ccccc21` has an Emax decrease of ~30% (CNR1 (Homo sapiens, UniProt P21554, I267L); Gαi1 engagement, agonist, BRET; reference: wild type).
The tissue uptake of `N=C(N)NCCC[C@@H]1NC(=O)[C@H](CCCCNC(=O)CNC(=O)CNC(=O)CNC(=O)CC[C@H](NC(=O)CCOCCOCCOCCOCCNC(=O)CC[C@H](NC(=O)CN2CCN(CC(=O)O)CCN(CC(=O)O)CCN(CC(=O)O)CC2)C(=O)NCCOCCOCCOCCOCCC(=O)N[C@@H](CCC(=O)NCC(=O)NCC(=O)NCC(=O)NCCCC[C@@H]2NC(=O)[C@@H](Cc3ccccc3)NC(=O)[C@H](CC(=O)O)NC(=O)CNC(=O)[C@H](CCCNC(=N)N)NC2=O)C(=O)NCC(=O)NCC(=O)NCC(=O)NCCCC[C@@H]2NC(=O)[C@@H](Cc3ccccc3)NC(=O)[C@H](CC(=O)O)NC(=O)CNC(=O)[C@H](CCCNC(=N)N)NC2=O)C(=O)NCC(=O)NCC(=O)NCC(=O)NCCCC[C@@H]2NC(=O)[C@@H](Cc3ccccc3)NC(=O)[C@H](CC(=O)O)NC(=O)CNC(=O)[C@H](CCCNC(=N)N)NC2=O)NC(=O)[C@@H](Cc2ccccc2)NC(=O)[C@H](CC(=O)O)NC(=O)CNC1=O` [indium-111 labelled] is reported as 0.07 %ID/g (female athymic nude mice, brain; intravenous, 3 µCi, 1 h, U-87 MG glioma xenograft).
`N[C@@H](CCC(=O)N[C@@H](CS[Se]Cc1ccc(C(=O)Nc2cc(C(F)(F)F)c(Br)c(C(F)(F)F)c2)cc1)C(=O)NCC(=O)O)C(=O)O` has a selectivity ratio of > 100 (ptpB (Mycobacterium tuberculosis, UniProt I6WXK4); enzyme activity, inhibitor; with: glutathione 1 mM; reference: IC50 over mPTPA (M. tuberculosis)).
For `Cc1nc(=O)c2cc(CN(C)c3ccc(C(=O)N[C@@H](CCc4nn[nH]n4)C(=O)O)s3)ccc2[nH]1`, the Hill slope was 1.3 (4'-phosphopantetheinyl transferase PptT; enzyme activity, inhibitor, fluorescence polarization).
Under “STD NMR signal”, `CC(N)Cc1cccc(C(F)(F)F)c1` (stereo not drawn) is recorded as 8.07% (Amyloid-beta precursor protein, amyloid-beta 1-40 oligomers (APP, Homo sapiens, UniProt P05067); binding, STD NMR; highest STD).
`Cc1cc(S(=O)(=O)N(C)CC(=O)Nc2ccn(C)c(=O)c2)c2[nH]ncc2c1` — result for “dissociation rate ratio”: 10 fold (DLD (Homo sapiens, UniProt P09622); SPR; reference: human over M. tuberculosis Lpd).
`CC(C)(C)c1ncc(CNC23CC4CC(CC(C4)C2)C3)s1`: inhibition “inactive” (Matrix protein 2; ion current, inhibitor, TEVC; Xenopus laevis oocytes; 100 µM, 2 min, wild type).
For `CCCc1cn(-c2ccc(C(=O)N[C@H]3CCOC3=O)cc2)nn1`, the activation was 1% (lasR (Pseudomonas aeruginosa, UniProt P25084); reporter gene, agonist; Escherichia coli, DH5α pJN105L/pSC11; 100 µM; reference: OdDHL at same concentration).
The kon of `COc1ccc(CNc2ccc(C34CC5CC(CC(C5)C3)C4)cc2)c(O)c1` is reported as 381.7 ± 1.4 M⁻¹ s⁻¹ (Matrix protein 2; binding).
For `Cc1nc(=O)c2cc(CN(C)c3cccc(C(=O)N[C@@]4(C(=O)O)CC[C@@H](C(=O)O)C4)c3)ccc2[nH]1`, the Hill slope was 1.4 (4'-phosphopantetheinyl transferase PptT; enzyme activity, inhibitor, fluorescence polarization).
`CCCC[C@H](NC(=O)CNC(=O)CNC(=O)c1ccc(NN)nc1)C(=O)N[C@H]1CC(=O)NCCCC[C@@H](C(N)=O)NC(=O)[C@H](Cc2c[nH]c3ccccc23)NC(=O)[C@H](CCCNC(=N)N)NC(=O)[C@@H](Cc2ccccc2)NC(=O)[C@H](Cc2c[nH]cn2)NC1=O` [technetium-99m labelled] gave a tissue uptake of 13.2 ± 2.35 %ID/g (C57 mouse, B16/F1 melanoma-bearing, tumor; intravenous, 4 h).
For `CCOC(=O)C1C(OC(c2ccc(Cl)cc2)c2ccc(Cl)cc2)CC2CCC1N2C` (single isomer, unassigned), Ki read “inactive” (Adra1a (Rattus norvegicus, UniProt P43140); binding, radioligand displacement; rat submaxillary gland; inactive if below 75% at 10000 nM, with: [3H]prazosin).
For `N=C(N)NCCC[C@@H]1NC(=O)[C@H](CCCCNC(=O)CC[C@H](NC(=O)CCOCCOCCOCCOCCNC(=O)CC[C@H](NC(=O)CN2CCN(CC(=O)O)CCN(CC(=O)O)CCN(CC(=O)O)CC2)C(=O)NCCOCCOCCOCCOCCC(=O)N[C@@H](CCC(=O)NCCCC[C@@H]2NC(=O)[C@@H](Cc3ccccc3)NC(=O)[C@H](CC(=O)O)NC(=O)CNC(=O)[C@H](CCCNC(=N)N)NC2=O)C(=O)NCCCC[C@@H]2NC(=O)[C@@H](Cc3ccccc3)NC(=O)[C@H](CC(=O)O)NC(=O)CNC(=O)[C@H](CCCNC(=N)N)NC2=O)C(=O)NCCCC[C@@H]2NC(=O)[C@@H](Cc3ccccc3)NC(=O)[C@H](CC(=O)O)NC(=O)CNC(=O)[C@H](CCCNC(=N)N)NC2=O)NC(=O)[C@@H](Cc2ccccc2)NC(=O)[C@H](CC(=O)O)NC(=O)CNC1=O` [indium-111 labelled], the tissue uptake was 7.98 ± 4.47 %ID/g (female athymic nude mice, intestine; intravenous, 3 µCi, 4 h, U-87 MG glioma xenograft).
With `Cc1nc(=O)c2cc(CN(C)c3cccc(C(=O)N[C@@H](CCC(=O)O)C(=O)O)c3)ccc2[nH]1` the Hill slope was 1.4 (4'-phosphopantetheinyl transferase PptT; enzyme activity, inhibitor, fluorescence polarization).
`CC(C)[C@]12O[C@H]1[C@@H]1O[C@]13[C@]1(O[C@H]1C[C@H]1c4c(C(=O)c5ccccc5)oc(OC(=O)c5ccccc5)c4CC[C@@]13C)[C@@H]2O` gave an IC50 of 74 nM (MV4-11; cell viability, Alamar Blue; 24 h).
For `CCCCCn1cc(C(=O)c2cccc3c2CC(C)(C)C3)c2ccccc21`, the Emax was 17.6 ± 2.7% (CNR2 (Homo sapiens, UniProt P34972, L182I); Gαi1 engagement, agonist, BRET; reference: reference agonist at wild-type CB2).
With `O=S(=O)(O)CCOCC1CSSCC(COCCS(=O)(=O)O)SS1` (stereo not drawn) the koff was 0.077 ± 0.0031 s⁻¹ (Response regulator PhoP (Mycobacterium tuberculosis, UniProt P71814); binding, LSPR).
The Hill slope of `Cc1nc(=O)c2cc(CN(C)c3ccc(C(=O)NCC(=O)O)s3)ccc2[nH]1` is reported as 1.1 (4'-phosphopantetheinyl transferase PptT; enzyme activity, inhibitor, fluorescence polarization).
With `CCCCCn1cc(C(=O)c2ccc3ccccc3c2)c2ccccc21` the Emax was 84.5 ± 6.5% (CNR2 (Homo sapiens, UniProt P34972); Gαi1 engagement, agonist, BRET; HEK293T; reference: reference agonist).
For `CCOC(=O)CC[C@H](NC(=O)c1ccc(N(C)Cc2ccc3[nH]c(C)nc(=O)c3c2)s1)C(=O)OCC`, the Hill slope was 0.7 (4'-phosphopantetheinyl transferase PptT; enzyme activity, inhibitor, fluorescence polarization).
`CCCCCc1cc(O)c2c(c1)OC(C)(C)C1CCC(C)=CC21` (single isomer, unassigned; (-)) — result for inhibition: “no inhibition” (UGT1A3 (Homo sapiens, UniProt P35503); chenodeoxycholic acid glucuronidation; recombinant microsomes; 10 or 100 µM, with: chenodeoxycholic acid).
For `Cc1nc(=O)c2cc(CN(C)c3ccc(C(=O)NCCN4C(=O)NC(=O)[C@H]4C)s3)ccc2[nH]1`, the Hill slope was 0.7 (4'-phosphopantetheinyl transferase PptT; enzyme activity, inhibitor, fluorescence polarization).
For `Clc1ccc(CNC23CC4CC(CC(C4)C2)C3)s1`, the inhibition was 91% (Matrix protein 2; ion current, two-electrode voltage clamp; 100 µM).

Some of these lines once more:
`Cc1nc(=O)c2cc(CN(C)c3cccc(C(=O)N[C@@]4(C(=O)O)CCC[C@H](C(=O)O)C4)c3)ccc2[nH]1` has a Hill slope of 0.9 (4'-phosphopantetheinyl transferase PptT; enzyme activity, inhibitor, fluorescence polarization).
For `Clc1ccc(CNC23CC4CC(CC(C4)C2)C3)s1`, the inhibition was 91% (Matrix protein 2; ion current, two-electrode voltage clamp; 100 µM).
